Published values of several laboratories.
“And” joins repeats or separate records; there may be more than shown. ± marks the error that the study gave.
YAP1 WW2 domain: Transcriptional coactivator YAP1, WW2 domain (YAP1, Homo sapiens, UniProt P46937)
CFTR del508-508: Cystic fibrosis transmembrane conductance regulator (CFTR, Homo sapiens, UniProt P13569, del508-508)
Kelch domain-containing protein 2: Kelch domain-containing protein 2 (UniProt Q9Y2U9)
Sequence of UniProt Q9Y2U9 (whole entry, looked up): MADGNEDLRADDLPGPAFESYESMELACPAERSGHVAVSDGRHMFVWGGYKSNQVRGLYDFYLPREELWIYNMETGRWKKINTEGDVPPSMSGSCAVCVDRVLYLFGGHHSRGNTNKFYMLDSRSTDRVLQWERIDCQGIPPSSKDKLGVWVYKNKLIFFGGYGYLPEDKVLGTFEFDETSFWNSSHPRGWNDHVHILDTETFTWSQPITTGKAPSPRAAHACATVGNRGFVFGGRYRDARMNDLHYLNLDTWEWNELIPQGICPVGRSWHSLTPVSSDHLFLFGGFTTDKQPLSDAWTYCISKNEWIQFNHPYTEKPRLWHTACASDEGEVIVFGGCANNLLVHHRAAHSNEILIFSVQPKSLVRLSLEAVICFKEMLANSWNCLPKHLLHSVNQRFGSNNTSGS
KCNT1: Potassium channel subfamily T member 1 (KCNT1, Homo sapiens, UniProt Q5JUK3)
Sequence of UniProt Q5JUK3 (whole entry, looked up): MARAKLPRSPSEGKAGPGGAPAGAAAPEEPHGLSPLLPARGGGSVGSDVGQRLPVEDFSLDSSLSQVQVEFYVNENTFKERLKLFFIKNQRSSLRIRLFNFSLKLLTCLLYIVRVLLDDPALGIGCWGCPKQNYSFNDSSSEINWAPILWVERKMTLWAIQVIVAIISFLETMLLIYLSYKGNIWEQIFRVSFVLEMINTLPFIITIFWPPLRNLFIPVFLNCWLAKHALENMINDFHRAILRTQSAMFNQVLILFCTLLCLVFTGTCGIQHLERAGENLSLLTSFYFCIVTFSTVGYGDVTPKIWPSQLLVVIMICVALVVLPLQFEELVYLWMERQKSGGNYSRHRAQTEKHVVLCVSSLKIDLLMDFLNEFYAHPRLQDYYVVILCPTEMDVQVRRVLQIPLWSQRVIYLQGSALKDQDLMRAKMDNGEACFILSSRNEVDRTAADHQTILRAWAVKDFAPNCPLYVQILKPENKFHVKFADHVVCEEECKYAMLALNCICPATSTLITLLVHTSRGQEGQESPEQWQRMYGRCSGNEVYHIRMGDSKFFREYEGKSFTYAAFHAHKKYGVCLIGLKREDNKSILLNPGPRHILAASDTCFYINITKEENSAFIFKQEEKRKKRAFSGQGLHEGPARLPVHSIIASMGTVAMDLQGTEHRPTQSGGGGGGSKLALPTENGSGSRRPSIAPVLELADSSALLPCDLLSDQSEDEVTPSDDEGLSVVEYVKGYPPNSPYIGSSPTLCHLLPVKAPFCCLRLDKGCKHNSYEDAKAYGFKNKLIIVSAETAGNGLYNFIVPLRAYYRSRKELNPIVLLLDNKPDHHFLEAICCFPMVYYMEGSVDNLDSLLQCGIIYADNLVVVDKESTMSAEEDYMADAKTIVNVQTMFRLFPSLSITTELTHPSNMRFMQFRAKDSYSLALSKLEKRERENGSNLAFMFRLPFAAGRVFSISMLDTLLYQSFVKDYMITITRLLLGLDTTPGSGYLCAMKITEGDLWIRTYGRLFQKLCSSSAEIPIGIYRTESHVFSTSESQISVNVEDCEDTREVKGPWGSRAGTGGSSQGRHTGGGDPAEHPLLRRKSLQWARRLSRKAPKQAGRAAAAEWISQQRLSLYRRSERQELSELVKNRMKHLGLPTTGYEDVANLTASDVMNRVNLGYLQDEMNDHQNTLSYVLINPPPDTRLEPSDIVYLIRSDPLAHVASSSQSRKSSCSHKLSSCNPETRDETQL
T1: DNA aptamer, truncated, engineered stem; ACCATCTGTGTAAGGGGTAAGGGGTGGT
Sequence of UniProt Q9NZ08 (whole entry, unmodified, looked up): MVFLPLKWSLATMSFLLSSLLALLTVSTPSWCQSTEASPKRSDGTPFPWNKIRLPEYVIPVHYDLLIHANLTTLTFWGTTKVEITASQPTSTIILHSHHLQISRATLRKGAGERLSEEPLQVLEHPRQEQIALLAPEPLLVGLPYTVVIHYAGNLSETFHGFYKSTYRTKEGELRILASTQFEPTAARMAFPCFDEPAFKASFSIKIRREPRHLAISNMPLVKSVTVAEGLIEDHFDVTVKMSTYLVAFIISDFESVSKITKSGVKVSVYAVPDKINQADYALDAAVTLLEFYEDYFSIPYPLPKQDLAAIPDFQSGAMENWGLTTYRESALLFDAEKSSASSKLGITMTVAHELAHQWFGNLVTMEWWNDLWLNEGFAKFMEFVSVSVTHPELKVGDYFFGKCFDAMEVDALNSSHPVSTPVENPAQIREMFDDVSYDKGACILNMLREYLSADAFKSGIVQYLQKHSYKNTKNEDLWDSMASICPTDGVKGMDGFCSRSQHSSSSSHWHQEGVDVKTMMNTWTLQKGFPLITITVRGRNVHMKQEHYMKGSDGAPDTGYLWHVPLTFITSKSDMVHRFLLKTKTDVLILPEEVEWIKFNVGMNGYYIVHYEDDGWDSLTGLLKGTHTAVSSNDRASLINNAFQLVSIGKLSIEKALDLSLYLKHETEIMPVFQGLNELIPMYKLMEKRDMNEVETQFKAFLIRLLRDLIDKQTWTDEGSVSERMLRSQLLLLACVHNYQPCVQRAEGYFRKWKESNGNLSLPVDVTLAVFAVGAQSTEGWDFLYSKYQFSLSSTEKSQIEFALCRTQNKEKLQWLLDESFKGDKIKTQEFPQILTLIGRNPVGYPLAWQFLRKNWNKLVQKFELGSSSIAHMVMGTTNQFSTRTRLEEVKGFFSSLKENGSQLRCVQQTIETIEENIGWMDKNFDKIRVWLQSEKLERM
Sequence of UniProt P07602 (whole entry, looked up): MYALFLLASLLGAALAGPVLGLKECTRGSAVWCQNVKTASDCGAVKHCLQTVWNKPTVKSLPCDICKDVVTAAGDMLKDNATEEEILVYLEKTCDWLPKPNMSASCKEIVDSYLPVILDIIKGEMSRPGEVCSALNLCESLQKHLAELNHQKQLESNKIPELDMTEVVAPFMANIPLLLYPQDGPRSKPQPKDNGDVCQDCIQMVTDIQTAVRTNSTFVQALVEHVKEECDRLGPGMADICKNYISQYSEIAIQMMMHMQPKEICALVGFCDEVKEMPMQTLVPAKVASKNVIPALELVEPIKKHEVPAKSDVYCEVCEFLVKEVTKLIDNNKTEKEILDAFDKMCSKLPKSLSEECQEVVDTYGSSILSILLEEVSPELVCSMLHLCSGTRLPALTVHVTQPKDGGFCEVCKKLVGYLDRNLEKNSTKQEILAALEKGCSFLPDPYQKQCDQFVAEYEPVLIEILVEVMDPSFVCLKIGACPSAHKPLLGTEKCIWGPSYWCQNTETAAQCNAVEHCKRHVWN
Sequence of UniProt P24612 (whole entry, unmodified, looked up): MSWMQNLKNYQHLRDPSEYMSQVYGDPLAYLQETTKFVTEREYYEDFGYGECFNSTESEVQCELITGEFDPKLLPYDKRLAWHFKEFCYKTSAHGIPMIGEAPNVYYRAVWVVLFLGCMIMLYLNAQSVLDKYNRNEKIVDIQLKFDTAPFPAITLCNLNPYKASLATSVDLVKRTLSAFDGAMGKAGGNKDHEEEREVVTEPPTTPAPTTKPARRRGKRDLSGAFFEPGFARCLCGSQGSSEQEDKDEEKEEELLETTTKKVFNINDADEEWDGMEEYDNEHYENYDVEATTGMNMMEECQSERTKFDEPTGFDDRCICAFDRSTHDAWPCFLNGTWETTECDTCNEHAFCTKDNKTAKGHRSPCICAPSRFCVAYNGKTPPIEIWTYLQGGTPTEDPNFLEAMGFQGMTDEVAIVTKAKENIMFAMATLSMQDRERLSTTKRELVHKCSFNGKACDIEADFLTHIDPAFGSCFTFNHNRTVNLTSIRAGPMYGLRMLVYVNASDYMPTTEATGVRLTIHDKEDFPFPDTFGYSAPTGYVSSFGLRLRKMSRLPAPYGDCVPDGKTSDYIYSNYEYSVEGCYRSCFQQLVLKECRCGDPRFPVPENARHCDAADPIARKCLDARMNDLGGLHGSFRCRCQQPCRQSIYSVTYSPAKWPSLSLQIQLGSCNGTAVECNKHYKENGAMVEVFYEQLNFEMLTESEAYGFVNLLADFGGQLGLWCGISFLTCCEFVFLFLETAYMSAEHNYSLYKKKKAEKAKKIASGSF
Sequence of UniProt P35149 (whole entry, unmodified, looked up): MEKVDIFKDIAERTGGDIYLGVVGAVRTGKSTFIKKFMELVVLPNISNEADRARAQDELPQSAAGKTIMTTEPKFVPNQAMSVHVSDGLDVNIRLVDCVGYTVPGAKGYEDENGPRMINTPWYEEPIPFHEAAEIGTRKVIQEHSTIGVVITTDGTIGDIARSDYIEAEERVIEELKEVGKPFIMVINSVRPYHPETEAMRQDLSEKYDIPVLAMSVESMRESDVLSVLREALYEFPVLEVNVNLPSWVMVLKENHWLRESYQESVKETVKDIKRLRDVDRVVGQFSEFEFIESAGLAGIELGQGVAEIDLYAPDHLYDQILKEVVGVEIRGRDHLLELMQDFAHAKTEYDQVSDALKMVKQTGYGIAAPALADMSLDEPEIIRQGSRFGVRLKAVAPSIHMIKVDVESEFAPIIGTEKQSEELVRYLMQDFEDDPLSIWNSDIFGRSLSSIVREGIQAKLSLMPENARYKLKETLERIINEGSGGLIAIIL

CC(=O)Oc1ccccc1C(=O)O
current change (Degenerin mec-4 (mec-4, Caenorhabditis elegans, UniProt P24612, A713T); ion current, two-electrode voltage clamp; Xenopus oocytes coexpressing MEC-2; 30 µM, -85 mV; relative to: uninjected oocytes, positive inhibition, negative potentiation): -4.75 µA

CC(C)C[C@H](NC(=O)[C@@H](NC(=O)[C@@H](N)[C@@H](C)O)C(C)C)C(=O)N[C@@H](C)C(=O)N1CCC[C@H]1C(=O)N1CCC[C@H]1C(=O)N1CCC[C@H]1C(=O)N[C@@H](Cc1ccc(O)cc1)C(=O)N[C@@H](CCCNC(=N)N)C(=O)N[C@@H](Cc1c[nH]cn1)C(=O)N[C@@H](CCCNC(=N)N)C(=O)N[C@@H](CC(N)=O)C(=O)O
ΔG (YAP1 WW2 domain; binding, ITC; pH 7.0, 25 °C, WW2 domain): -5.41 ± 0.12 kcal/mol

CC[C@H](C)[C@H](NC(=O)[C@H](CC(C)C)NC(=O)[C@H](Cc1ccccc1)NC(=O)[C@@H](NC(=O)[C@H](C)N)[C@@H](C)O)C(=O)N[C@@H](CCC(N)=O)C(=O)N[C@@H](CCC(=O)O)C(=O)N[C@@H](Cc1ccc(O)cc1)C(=O)N[C@@H](Cc1ccccc1)C(=O)N[C@@H](CCCNC(=N)N)C(=O)N[C@@H](CCCCN)C(=O)N[C@@H](Cc1ccccc1)C(=O)N[C@@H](CCCCN)C(=O)N[C@@H](CCCCN)C(=O)N[C@@H](CCCNC(=N)N)C(=O)N[C@@H](CCCCN)C(=O)N[C@@H](CCC(=O)O)C(=O)N[C@@H](CCC(N)=O)C(=O)NCC(=O)N[C@@H](CC(C)C)C(=O)N[C@H](C(=O)NCC(=O)N[C@@H](CCCCN)C(=O)N1CCC[C@H]1C(=O)N[C@@H](CO)C(=O)N[C@@H](CCC(N)=O)C(=O)O)C(C)C
apparent calcium binding free energy, ΔG1 (rat calmodulin 1-80, sites I and II; fluorescence titration; 6 to 8 µM, pH 7.4, 22 °C): -6.66 ± 0.22 kcal/mol

COc1ccc(Cl)cc1Nc1nc2c(s1)CCCCc1nc(NC(=O)C(C)(C)C)sc1-2
Vmax (CFTR del508-508; iodide influx, corrector, YFP halide quenching; FRT cells expressing YFP-H148Q/I152L; 16 to 20 h, 37 °C, genistein 50 µM, with: forskolin 20 µM): 512 µM/s

Cc1ccc(-c2csc3ncn(Cc4ccncc4)c(=O)c23)o1
activity (MAD2L2, with REV3L peptide (Homo sapiens, UniProt Q9UI95, R124A); concentration not given): inactive

COC1=C(OC)C(=O)C(C/C=C(\C)CC/C=C(\C)CC/C=C(\C)CC/C=C(\C)CC/C=C(\C)CC/C=C(\C)CC/C=C(\C)CC/C=C(\C)CCC=C(C)C)=C(C)C1=O
log association constant (Prosaposin, Saposin B (PSAP, Homo sapiens, UniProt P07602); binding, tyrosine fluorescence quenching; pH 5.5, 25 °C, 40 µM saposin B, 50 mM phosphate): 6.2

ternatin-4
residence time (Elongation factor 1-alpha 1, ternary complex on ribosome (EEF1A1, Homo sapiens, UniProt P68104); smFRET chase; 10 µM, 25 °C): 56 s

IINFEKE
K1/2 of L-AMC (Endoplasmic reticulum aminopeptidase 1 (ERAP1, Homo sapiens, UniProt Q9NZ08, I681R); substrate; peptide; pH 8.0, 27 °C, mutant I681R, with: L-AMC, peptide activator 100 µM): 0.24 ± 0.06 mM

O=C1CCN1C(=O)OCc1ccccc1
phosphopantetheine acylation (Erythronolide synthase EryA1, module 2 ACP, holo (eryA, Saccharopolyspora erythraea, UniProt Q03131); substrate, LC-MS of tryptic digest; 10 equivalents, 1 h, pH 7, room temperature): ~80%

Nc1ncnc2c1ncn2[C@@H]1O[C@H](COP(=O)(O)OP(=O)(O)OP(=O)(O)O)[C@@H](O)[C@H]1O
fold reduction in binding (spoIVA (Bacillus subtilis, UniProt P35149, K30A); ATP binding, filter binding; concentration not given, pH 7.5, 30 °C, Walker A mutant at highest concentration, with: 1 mM MgCl2; relative to: wild type): > 23 fold

Nc1ccc(-c2nc([C@H]3CCc4cc(-c5cc(Cl)ccc5-n5cnnn5)cc(=O)n43)c(F)[nH]2)c(F)n1
FXI activity inhibition (Coagulation factor XI (F11, Homo sapiens, UniProt P03951); human, blood; oral, 250 mg once daily, fed, day 1, 24 h): 67 ± 6.5%

CC(C)C[C@H](NC(=O)[C@@H](NC(=O)[C@@H](N)[C@@H](C)O)C(C)C)C(=O)N1CCC[C@H]1C(=O)N1CCC[C@H]1C(=O)N1CCC[C@H]1C(=O)N[C@@H](C)C(=O)N[C@@H](Cc1ccc(O)cc1)C(=O)N[C@@H](CCCNC(=N)N)C(=O)N[C@@H](Cc1c[nH]cn1)C(=O)N[C@@H](CCCNC(=N)N)C(=O)N[C@@H](CC(N)=O)C(=O)O
TΔS (YAP1 WW2 domain; binding, ITC; pH 7.0, 25 °C, WW2 domain): -4.74 ± 0.4 kcal/mol

EKGGGSGGG
fraction of protein bound (Kelch domain-containing protein 2; native mass spectrometry; peptide, 200 mM ammonium acetate; 20 µM Kelch domain-containing protein 2, pH 7; relative to: total Kelch domain-containing protein 2 signal): 19.5%

O=S(=O)(Sc1ccccc1Cl)c1ccccc1Cl
inhibition (tubulin; colchicine binding, [3H]colchicine binding; 50 µM, 10 min, 37 °C, with: [3H]colchicine 5.0 µM): 31 ± 4%

COc1ccc(Cl)cc1Nc1nc2c(s1)CCCc1nc(N)sc1-2
Vmax (CFTR del508-508; iodide influx, corrector, YFP halide quenching; FRT cells expressing YFP-H148Q/I152L; 16 to 20 h, 37 °C, genistein 50 µM, with: forskolin 20 µM): 351 µM/s

GSRPQRLLWQTAVRHITEQRFIHGH
koff2 (Calmodulin-1 (Calm1, Rattus norvegicus, UniProt P0DP29, D21A/D57A); Ca2+ dissociation, stopped-flow quin-2 fluorescence; peptide; 2 µM, pH 7.4, 22 °C, with: Ca2+-calmodulin complex): 0.29 ± 0.06 s⁻¹

CC(C)[C@H](NC(=O)[C@@H](N)[C@@H](C)O)C(=O)N[C@@H](C)C(=O)N1CCC[C@H]1C(=O)N1CCC[C@H]1C(=O)N1CCC[C@H]1C(=O)N1CCC[C@H]1C(=O)N[C@@H](Cc1ccc(O)cc1)C(=O)N[C@@H](CCCNC(=N)N)C(=O)N[C@@H](Cc1c[nH]cn1)C(=O)N[C@@H](CCCNC(=N)N)C(=O)N[C@@H](CC(N)=O)C(=O)O
ΔG (Transcriptional coactivator YAP1, WW1 domain (YAP1, Homo sapiens, UniProt P46937); binding, ITC; pH 7.0, 25 °C, WW1 domain): -5.94 ± 0.13 kcal/mol

Nc1ncnc2c1ncn2[C@@H]1O[C@H](COP(=O)(O)OP(=O)(O)OP(=O)(O)O)[C@@H](O)[C@H]1O
dissociation rate constant (Sodium/potassium-transporting ATPase subunit alpha-1 (ATP1A1, Canis lupus familiaris, UniProt P50997); binding, ligand dissociation kinetics; dog enzyme; Na+ 200 mM, 4 °C, Arg+ replacement, total monovalent cation 500 mM, nitrate, preparation B): 1.9 ± 0.21 s⁻¹

COc1ccccc1C(=O)N1CCN(c2nc3cc(C)cc(C)c3cc2C#N)CC1
EC50 (CFTR del508-508; ΔF508-CFTR correction, corrector; FRT; up to 25 µM, 37 °C, with: forskolin 20 µM + genistein 50 µM): inactive

CO[C@@]12[C@H](COC(N)=O)C3=C(C(=O)C(C)=C(N)C3=O)N1C[C@@H]1N[C@@H]12
binding (T1, DNA aptamer, truncated, engineered stem; electrochemical aptamer sensor; 1 mM): no binding

ACASDEGEVIVFGG
fraction of protein bound (Kelch domain-containing protein 2; native mass spectrometry; peptide, 200 mM ammonium acetate; 20 µM Kelch domain-containing protein 2, pH 7; relative to: total Kelch domain-containing protein 2 signal): 0.3%

CCOc1ccccc1S(=O)(=O)N1CC(c2nc(-c3cccc(Cl)c3)no2)C1
activity class (KCNT1; Tl+ flux, inhibitor; HEK293 expressing KCNT1; 30 µM): inactive

O=S(=O)(Sc1ccc(Cl)cc1)c1ccc(Cl)cc1
inhibition (tubulin; colchicine binding, [3H]colchicine binding; 50 µM, 10 min, 37 °C, with: [3H]colchicine 5.0 µM): 75 ± 2%

O=Cc1c(O)cc(C(F)(F)F)cc1C(F)(F)F
HRP binding (CD209 antigen (CD209, Homo sapiens, UniProt Q9NNX6); activator, plate-based HRP; 500 µM, overnight, 4 °C or RT; relative to: DMSO control): ≥ 50%

O=C(Nc1cccc(C(F)(F)F)c1)c1ccccc1NC(=O)C1CCCCC1
efficacy (Relaxin receptor 1 (RXFP1, Homo sapiens, UniProt Q9HBX9); cAMP level, agonist, HTRF; HEK293 cells expressing RXFP1; relative to: forskolin 57.5 µM as 100%): 80%

N[C@@H](Cc1cnc[nH]1)C(=O)O
ΔTm (Histidine--tRNA ligase, cytoplasmic (HARS1, Homo sapiens, UniProt P12081, Y330C); thermal stability, DSF): 4.23 °C

CCOc1ccccc1S(=O)(=O)N1CC(c2cc(-c3ccc(F)cc3)no2)C1
activity class (KCNT1; Tl+ flux, inhibitor; HEK293 expressing KCNT1; 30 µM): inactive

IINFEKL
K1/2 of L-AMC (Endoplasmic reticulum aminopeptidase 1 (ERAP1, Homo sapiens, UniProt Q9NZ08, F803R); substrate; peptide; pH 8.0, 27 °C, mutant F803R, with: L-AMC, peptide activator 100 µM): ~0.19 mM and 0.2 mM

c1cnc2c(c1)ccc1cccnc12
transit peptide conversion (Stromal processing peptidase, chloroplastic (SPP, Pisum sativum, UniProt Q40983); 5 mM): inhibited

COc1ccc(C(=O)NCCNc2nc3cc(C)cc(C)c3cc2C#N)cc1
Vmax (CFTR del508-508; CFTR correction, corrector, iodide influx rate; FRT expressing YFP-H148Q/I152L; up to 25 µM, 16-20 h, 37 °C, with: forskolin 20 µM, genistein 50 µM): 172 µM/s

Cc1ccc(S(=O)(=O)N2CC(c3nc(-c4ccsc4)no3)C2)cc1
activity class (KCNT1; Tl+ flux, inhibitor; HEK293 expressing KCNT1; 30 µM): inactive
